Published values from different studies.
Protocols differ between the studies behind these lines. ± gives the spread as reported.

COc1cc2ncnc(Oc3ccc(Nc4nccc5[nH]cc(-c6ccc(F)cc6)c(=O)c45)cc3F)c2cc1OC
AUC(0-t) (male beagle dog, plasma; oral, 4 mg/kg): 40100 ng·h/mL

CNC(=O)c1ccc(C2CCCCC2)cc1
hepatic clearance (liver microsome stability; mouse liver microsomes; 1 µM): 87 mL/min/kg

CC(=O)N([O-])CCCCCNC(=O)CCC(=O)N([O-])CCCCCNC(=O)CCC(=O)N([O-])CCCCCN.[89Zr+4]
intact complex (radio-TLC; aqueous buffer; 1 d, pH 7, 37 °C, 89Zr-labelled complex, added: DTPA 1000-fold excess): 92.6 ± 0.6%

O=C(Oc1cccc(CSc2ncccn2)c1)c1ccc([N+](=O)[O-])cc1
parent compound detection (mouse liver microsomes; 5 min, added: with or without NADPH): not detected

COc1cccc(C2CC(c3ccccc3Cl)Nc3nc(N)nn32)c1 (centres unmarked)
permeability coefficient (PAMPA; artificial membrane; 10 µM, 4 h): > 1 ×10⁻⁶ cm/s

COc1cccc(OC)c1-c1cc(C(=O)NC2(C(=O)O)C3CC4CC(C3)CC2C4)nn1-c1ccc(C(=O)N(C)CCCN(C)CCCN(C)C(=O)[C@H](CCCCNC(=O)[C@H](CC(C)C)NC(=O)C2OC2C(=O)O)NC(=O)CN2CCN(CC(=O)[O-])CCN(CC(=O)[O-])CCN(CC(=O)[O-])CC2)cc1C(C)C.[177Lu+3] (mixture of isomers)
tumour-to-bone ratio (mouse, HT-29 xenograft; 168 h post injection, biodistribution; baseline: tumour over bone uptake): 9.75

O=C(NCCOc1ccc(F)cc1)c1ccc(C2CCCCC2)cc1
hepatic clearance (liver microsome stability; cynomolgus liver microsomes; 1 µM): 40 mL/min/kg

O=C([O-])CN1CCN(CC(=O)[O-])CCN(C(CO)C(O)CO)CCN(CC(=O)[O-])CC1.[Dy+3] (centres unmarked)
cumulative fecal excretion (ICP-MS; cynomolgus monkey, feces; 4 days post-injection; baseline: dose): 0.4%

CS(=O)(=O)c1ccc(-c2ccc([C@H]3[C@@H](F)[C@@H](F)C[C@@H](F)[C@H]3F)cc2)cn1
hepatic clearance (liver microsome stability; human liver microsomes; 1 µM, without NADPH): 3.9 mL/min/kg

C=CC(=O)N1CCCC(n2c(=O)c3ncccc3n(Cc3ccc(Oc4ccccc4)cc3)c2=O)C1 (centres unmarked)
compound remaining (metabolic stability; human, hepatocytes; 1 µM, 90 min): 46.5%

O=C(c1ccc(C2CCCCC2)cc1)N1CCCC1
hepatic clearance (liver microsome stability; rat liver microsomes; 1 µM): 52 mL/min/kg

[2H]C([2H])([2H])Oc1cc2c(cc1OC([2H])([2H])[2H])[C@H]1C[C@@H](O)[C@H](CC(C)C)CN1CC2
Tlag (refers to: deuterated analyte; healthy human male, plasma; oral, 25 mg, median, [14C]-deutetrabenazine dosed): 0.33 h

CN(C)c1cccc(-c2ccc([C@H]3[C@@H](F)[C@@H](F)C[C@@H](F)[C@H]3F)cc2)c1
hepatic clearance (hepatocyte stability; cryopreserved human hepatocytes; 1 µM): 10 mL/min/kg

Cc1cc2c(cc1O)C=C1C=CC(=O)C(C)(C)[C@H]1CC2
MRT(0-inf) (male Sprague-Dawley rat, plasma; intravenous, 2 mg/kg): 0.6 h

OCCCN1CC[C@@H]2C[C@H]1c1cc(-c3ccc(C(F)(F)F)cc3)ccc12
t1/2 (brain; ip, concentration not given): 11.4 h

O=C([O-])CN1CCN(CC(=O)[O-])CCN(CC(CCCc2ccccc2[N+](=O)[O-])N(CC(=O)[O-])CC(=O)[O-])CC1.[90Y+3] (centres unmarked)
intact radiolabelled complex (TLC; human serum; 72 h, pH 7, 37 °C): 99.8 ± 0.1%

CC(C)C[C@H](NC(=O)[C@H](CCCN)NC(=O)CNC(=O)[C@@H](NC(=O)[C@H](C)NC(=O)[C@@H]1CSCSC[C@H](NC(=O)CC[C@H](N)C(=O)O)C(=O)N[C@@H](CC(N)=O)C(=O)N[C@@H]([C@@H](C)O)C(=O)N[C@@H](C)C(=O)N[C@@H]([C@@H](C)O)C(=O)N1)[C@@H](C)O)C(=O)N[C@@H](C)C(=O)N[C@@H](CCC(=O)O)C(=O)N[C@@](C)(Cc1ccccc1)C(=O)N[C@@H](CC(C)C)C(=O)N[C@H](C(=O)N[C@@H](CCCNC(=N)N)C(=O)N[C@@H](CO)C(=O)N[C@@H](CO)C(=O)N[C@@H](CC(N)=O)C(=O)N(C)[C@@H](CC(N)=O)C(=O)N[C@@H](Cc1ccccc1)C(=O)NCC(=O)N1CCC[C@H]1C(=O)N[C@@H](CCCCNC(=O)CC[C@H](NC(=O)CC[C@H](NC(=O)CCCCCCCCCCCCCCCCCCC(=O)O)C(=O)O)C(=O)O)C(=O)N[C@@H](CC(C)C)C(=O)N1CCC[C@H]1C(=O)N1CCC[C@H]1C(=O)N[C@H](C(=O)N[C@@H](CCC(=O)O)C(=O)N[C@H](C(=O)NCC(=O)N[C@@H](CO)C(=O)N[C@@H](CC(N)=O)C(=O)N[C@H](C(=O)N[C@@H](Cc1ccc(O)cc1)C(N)=O)[C@@H](C)O)C(C)C)[C@@H](C)O)C(C)C
AUC(0-inf) (healthy humans, plasma; subcutaneous, dose not given): 62900 ng·h/mL

A few entries again:
O=C(NCCOc1ccc(F)cc1)c1ccc(C2CCCCC2)cc1
hepatic clearance (liver microsome stability; cynomolgus liver microsomes; 1 µM): 40 mL/min/kg
